Experimental data pooled from the literature.
Each numbered part is a random draw from the data of one study; scales do not carry over between parts.

Series 1
Target: Histone acetyltransferase KAT6A, winged helix 2, GST fusion (KAT6A, Homo sapiens, UniProt Q92794, residues 85-181)
Technique: protein binding microarray
Form: double-stranded DNA, one strand shown
Medium: in vitro
Concentration: not given
Notes: 8-mer, flanks averaged, mean of 2 arrays, mostly near background
Baseline: not given
Reading: higher = stronger binding
Construct (chain): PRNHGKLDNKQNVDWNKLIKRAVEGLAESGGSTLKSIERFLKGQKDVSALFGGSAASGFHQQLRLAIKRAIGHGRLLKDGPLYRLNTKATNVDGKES
The E-score of `CTAGCGCC` is reported as 0.139.
`AACAGGAG` gave an E-score of -0.206.
`CGCGGAAG` has an E-score of 0.0445.

Series 2
Target: Interferon regulatory factor 5, full length, phosphomimetic (IRF5, Homo sapiens, UniProt Q13568-2, residues 1-514, K96S/S451D/S453D/S456D/S462D)
Technique: protein-binding microarray
Form: double-stranded DNA, one strand shown
Medium: in vitro
Concentration: 250 nM
Notes: 60-bp whole probe
With: salmon DNA 0.4 mg/ml
Baseline: random background probes
Reading: higher = stronger binding
For `GCCTAGCACGACGATTCCAGATTCGAGACGTGCTAGGTCTTGATTCGCTTGACGCTGCTG`, the log fluorescence was 0.0237 z-score.
`GCCTAGCACGACGGTATCGGGTATCGGGAGGTGCTAGTCTTGATTCGCTTGACGCTGCTG` gave a log fluorescence of 3.53 z-score.
The log fluorescence of `GCCTAGCACGACGGTTCCGGTTTCGGGATGTGCTAGGTCTTGATTCGCTTGACGCTGCTG` is reported as 5.43 z-score.

Series 3
Target: Sal-like protein 4, full length isoform B (SALL4, Homo sapiens, UniProt Q9UJQ4-2, residues 1-616)
Technique: universal PBM
Form: double-stranded DNA, one strand shown
Medium: in vitro
Concentration: not given
Notes: 8-mer, flanks averaged, mean of replicates
Reading: higher = stronger binding
For `AAGATAGT`, the E-score was 0.132.
`AGGGTGGC` gave an E-score of -0.159.
With `CTAGTCAG` the E-score was -0.102.

Mixed results
`PhoQ, residues 284 288 289 292 302 303 SIHLQL` has a fold induction of 15.5 (PhoP, residues 12 14 15 18 19 NQAHL (Escherichia coli, UniProt P23836); Sort-seq, measured: YFP reporter; E. coli; PhoQ-PhoP variant library, with: 10 µM Mg2+; baseline: high Mg2+ state, higher = stronger signaling).

A few entries again (series 2):
For `GCCTAGCACGACGATTCCAGATTCGAGACGTGCTAGGTCTTGATTCGCTTGACGCTGCTG`, the log fluorescence was 0.0237 z-score.
`GCCTAGCACGACGGTATCGGGTATCGGGAGGTGCTAGTCTTGATTCGCTTGACGCTGCTG` gave a log fluorescence of 3.53 z-score.
